Published values of several laboratories.
Each line is one published result; not all experiments were run side by side.

SMILES | assay | system | conditions | kinetic solubility
Cc1ccc(NCC(=O)Nc2ccccc2)cc1S(=O)(=O)N1CCOCC1 | – | water | – | 183 µM
Cc1cc(N2CC[C@@](C#N)(C3CC3)C2=O)cc(NC(=O)Cc2ccccc2)n1 | nephelometry | aqueous buffer | 30 min, pH 6.5 | 6.3 to 12.5 µg/mL
CC(C)(C)C12CC(CN3CCN(C(c4ccccc4)c4ccc(Cl)cc4)CC3)(C1)C2 (stereo not drawn) | – | PBS | pH 7.4 | ≤ 1 µM
Cc1ccc(NC(C)(C)C(=O)Nc2ccc(F)c(Cl)c2)cc1S(=O)(=O)N1CC2CCC(C1)O2 | – | water | – | 157 µM
Cc1cc(N2CCC(C#N)(C3(C)CC3)C2=O)cc(C(=O)NCc2cc(F)cc(-c3cnn(C)c3)c2)n1 (racemic) | nephelometry | aqueous buffer | 30 min, pH 6.5 | < 1.6 µg/mL
C[C@@H]1CC[C@@H]([C@](O)(CNCc2cccc(F)c2)COCc2ccccc2)[C@H](OCc2ccccc2)C1 | – | PBS | 2 h, pH 7.4 | 20.9 µM
COc1cnc2cccc(N3CCc4c(cc(Cn5ccnc5)cc4-c4cn(C)nc4C(F)(F)F)C3=O)c2c1 | – | PBS | 1 h, pH 7.4 | 73 µM
COc1ccc(COC[C@](O)(CNCc2ccccc2)[C@@H]2CC[C@@H](C)C[C@H]2OCc2ccc(OC)cc2)cc1 | – | PBS | 2 h, pH 7.4 | 92 µM
COc1ccc(-c2csc(N/N=C(\C)c3cc(O)cc(O)c3)n2)cc1 | HPLC | aqueous buffer | 2 h, pH 7.4, 24 °C | > 12.5 µM
C[C@@H]1CC[C@@H]([C@](O)(CNCc2ccccc2F)COCc2ccccc2)[C@H](OCc2ccccc2)C1 | – | PBS | 2 h, pH 7.4 | 2.6 µM
O=C(CNc1ccc(Cl)c(S(=O)(=O)N2CCOCC2)c1)Nc1ccc(F)c(Cl)c1 | – | water | – | 79 µM
COc1ccccc1CNC[C@](O)(COCc1ccccc1)[C@@H]1CC[C@@H](C)C[C@H]1OCc1ccccc1 | – | PBS | 2 h, pH 7.4 | 6.5 µM
Cc1ccc(N(C)CC(=O)Nc2ccc(F)c(Cl)c2)cc1S(=O)(=O)N1CCOCC1 | – | water | – | 142 µM
C[C@@H]1CC[C@@H]([C@@](O)(CNCc2ccc(F)cc2)COCc2ccccc2)[C@H](OCc2ccccc2)C1 | – | PBS | 2 h, pH 7.4 | 1.4 µM
CCN(CC)S(=O)(=O)c1cc(NCC(=O)Nc2ccc(F)c(Cl)c2)ccc1C | – | water | – | 79 µM

A few entries again:
SMILES | assay | system | conditions | kinetic solubility
C[C@@H]1CC[C@@H]([C@](O)(CNCc2cccc(F)c2)COCc2ccccc2)[C@H](OCc2ccccc2)C1 | – | PBS | 2 h, pH 7.4 | 20.9 µM
CCN(CC)S(=O)(=O)c1cc(NCC(=O)Nc2ccc(F)c(Cl)c2)ccc1C | – | water | – | 79 µM
